Measured values of several laboratories.
A part holds a random share of what one study measured.

Sample 1
Target: Phosphate system positive regulatory protein PHO4, full length, GST-tagged (PHO4, Saccharomyces cerevisiae, UniProt P07270, residues 1-312)
Method: competition protein-binding microarray
Molecule type: double-stranded DNA, one strand shown
Medium: in vitro
Concentration: 2 µM
Notes: whole 60-bp probe, lowest competitor level
Added: Cbf1 competitor, 0.05 µM
Reading: higher = stronger binding
Endpoint: fluorescence intensity
Construct (chain): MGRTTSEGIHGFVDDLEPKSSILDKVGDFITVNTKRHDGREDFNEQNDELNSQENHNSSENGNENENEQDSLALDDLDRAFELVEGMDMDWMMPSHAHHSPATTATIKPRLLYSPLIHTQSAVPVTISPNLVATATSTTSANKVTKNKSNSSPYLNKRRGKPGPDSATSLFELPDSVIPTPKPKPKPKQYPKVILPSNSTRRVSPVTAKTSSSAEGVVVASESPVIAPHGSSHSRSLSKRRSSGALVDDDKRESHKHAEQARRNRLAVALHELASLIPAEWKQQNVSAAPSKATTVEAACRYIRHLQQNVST
TTTCGAGCCAGTTTGCACGTAGTACGGGCCCCCCTAGTCTTGATTCGCTTGACGCTGCTG: 6380 a.u.
GAGTTTTTGCATTTGCACGTGAATTAGTTCTTGGCCGTCTTGATTCGCTTGACGCTGCTG: 12800 a.u.
GTCTTGTCTCATTGAAGCGTGGGTGTCCCCACTTCAGTCTTGATTCGCTTGACGCTGCTG: 7730 a.u.
GAAAGGAAATGCTGTCATGTGAGTTAGGTGTAGAGCGTCTTGATTCGCTTGACGCTGCTG: 6280 a.u.

Sample 2
Target: Sal-like protein 4, full length isoform A (SALL4, Homo sapiens, UniProt Q9UJQ4, residues 1-1053)
Sequence of UniProt Q9UJQ4 (whole entry, looked up): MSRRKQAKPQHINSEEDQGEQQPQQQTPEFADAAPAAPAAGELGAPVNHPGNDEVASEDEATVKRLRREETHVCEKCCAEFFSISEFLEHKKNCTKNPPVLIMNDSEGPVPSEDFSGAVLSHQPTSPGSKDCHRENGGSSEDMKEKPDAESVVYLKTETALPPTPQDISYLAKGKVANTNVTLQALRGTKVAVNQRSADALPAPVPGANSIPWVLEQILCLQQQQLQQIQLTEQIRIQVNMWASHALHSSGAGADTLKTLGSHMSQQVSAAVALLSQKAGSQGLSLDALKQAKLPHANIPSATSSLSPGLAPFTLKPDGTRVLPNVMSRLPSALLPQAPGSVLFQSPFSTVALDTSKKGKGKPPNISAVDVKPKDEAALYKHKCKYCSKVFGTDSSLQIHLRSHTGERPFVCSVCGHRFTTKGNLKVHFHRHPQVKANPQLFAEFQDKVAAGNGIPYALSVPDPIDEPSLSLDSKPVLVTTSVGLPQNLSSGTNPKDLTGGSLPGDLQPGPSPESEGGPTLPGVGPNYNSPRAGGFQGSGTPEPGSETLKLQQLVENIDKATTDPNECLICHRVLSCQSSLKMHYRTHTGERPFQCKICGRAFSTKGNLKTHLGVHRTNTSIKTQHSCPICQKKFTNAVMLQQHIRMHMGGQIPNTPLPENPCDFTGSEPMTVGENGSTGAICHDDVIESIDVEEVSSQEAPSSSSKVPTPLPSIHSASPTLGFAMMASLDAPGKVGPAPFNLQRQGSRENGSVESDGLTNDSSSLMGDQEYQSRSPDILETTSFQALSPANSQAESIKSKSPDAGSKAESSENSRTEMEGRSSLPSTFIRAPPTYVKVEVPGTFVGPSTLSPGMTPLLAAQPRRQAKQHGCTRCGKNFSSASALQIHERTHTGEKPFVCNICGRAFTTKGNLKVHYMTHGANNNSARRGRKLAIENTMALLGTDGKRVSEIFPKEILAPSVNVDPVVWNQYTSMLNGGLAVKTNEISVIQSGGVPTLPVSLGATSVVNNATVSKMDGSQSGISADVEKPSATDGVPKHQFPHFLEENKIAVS
Method: universal PBM
Molecule type: double-stranded DNA, one strand shown
Medium: in vitro
Concentration: 600 nM
Notes: 8-mer, flanks averaged, mean of replicates
Reading: higher = stronger binding
Endpoint: E-score
AACCGATC: -0.129
AAGAGCTC: -0.324
CGTTGACA: -0.124
CAGCCACC: -0.22
CGTGGGCA: -0.266
AACACACC: 0.0216

Sample 3
Target: Interferon regulatory factor 5, full length, phosphomimetic (IRF5, Homo sapiens, UniProt Q13568-2, residues 1-514, S451D/S453D/S456D/S462D)
Method: protein-binding microarray
Molecule type: double-stranded DNA, one strand shown
Medium: in vitro
Concentration: 940 nM top
Notes: 60-bp whole probe
Added: salmon DNA 0.4 mg/ml
Baseline: random background probes
Reading: higher = stronger binding
Endpoint: fitted relative affinity
GCCTAGCACGACTAACTGAGTCTCGAGACGTGCTAGGTCTTGATTCGCTTGACGCTGCTG: 0.831 z-score
GCCTAGCACTTAGATATCAGTATCGACTAGTGCTAGGTCTTGATTCGCTTGACGCTGCTG: 2.22 z-score
GCCTAGCACATGAGACTGTCACATCCCTGGTGCTAGGTCTTGATTCGCTTGACGCTGCTG: 0.119 z-score
GCCTAGCACTTAGGTATCGACACTGGGTTTGTGCTAGTCTTGATTCGCTTGACGCTGCTG: 4.93 z-score

Further values, each from its own experiment
PhoQ, residues 284 288 289 292 302 303 NLMGRA  fold induction (PhoP, residues 12 14 15 18 19 VHSCL (Escherichia coli, UniProt P23836); Sort-seq, refers to: YFP reporter; E. coli; PhoQ-PhoP variant library, added: 10 µM Mg2+; baseline: high Mg2+ state, higher = stronger signaling): 18.9

Some of these lines once more (sample 3):
GCCTAGCACTTAGATATCAGTATCGACTAGTGCTAGGTCTTGATTCGCTTGACGCTGCTG: 2.22 z-score
GCCTAGCACGACTAACTGAGTCTCGAGACGTGCTAGGTCTTGATTCGCTTGACGCTGCTG: 0.831 z-score
GCCTAGCACATGAGACTGTCACATCCCTGGTGCTAGGTCTTGATTCGCTTGACGCTGCTG: 0.119 z-score
